Published values collected from several papers.
A part holds a random share of what one study measured. Positions count from the first letter of the parent shown.

Block 1
Target: Sal-like protein 4, full length isoform A (SALL4, Homo sapiens, UniProt Q9UJQ4, residues 1-1053)
UniProt Q9UJQ4, sequence (whole entry, looked up): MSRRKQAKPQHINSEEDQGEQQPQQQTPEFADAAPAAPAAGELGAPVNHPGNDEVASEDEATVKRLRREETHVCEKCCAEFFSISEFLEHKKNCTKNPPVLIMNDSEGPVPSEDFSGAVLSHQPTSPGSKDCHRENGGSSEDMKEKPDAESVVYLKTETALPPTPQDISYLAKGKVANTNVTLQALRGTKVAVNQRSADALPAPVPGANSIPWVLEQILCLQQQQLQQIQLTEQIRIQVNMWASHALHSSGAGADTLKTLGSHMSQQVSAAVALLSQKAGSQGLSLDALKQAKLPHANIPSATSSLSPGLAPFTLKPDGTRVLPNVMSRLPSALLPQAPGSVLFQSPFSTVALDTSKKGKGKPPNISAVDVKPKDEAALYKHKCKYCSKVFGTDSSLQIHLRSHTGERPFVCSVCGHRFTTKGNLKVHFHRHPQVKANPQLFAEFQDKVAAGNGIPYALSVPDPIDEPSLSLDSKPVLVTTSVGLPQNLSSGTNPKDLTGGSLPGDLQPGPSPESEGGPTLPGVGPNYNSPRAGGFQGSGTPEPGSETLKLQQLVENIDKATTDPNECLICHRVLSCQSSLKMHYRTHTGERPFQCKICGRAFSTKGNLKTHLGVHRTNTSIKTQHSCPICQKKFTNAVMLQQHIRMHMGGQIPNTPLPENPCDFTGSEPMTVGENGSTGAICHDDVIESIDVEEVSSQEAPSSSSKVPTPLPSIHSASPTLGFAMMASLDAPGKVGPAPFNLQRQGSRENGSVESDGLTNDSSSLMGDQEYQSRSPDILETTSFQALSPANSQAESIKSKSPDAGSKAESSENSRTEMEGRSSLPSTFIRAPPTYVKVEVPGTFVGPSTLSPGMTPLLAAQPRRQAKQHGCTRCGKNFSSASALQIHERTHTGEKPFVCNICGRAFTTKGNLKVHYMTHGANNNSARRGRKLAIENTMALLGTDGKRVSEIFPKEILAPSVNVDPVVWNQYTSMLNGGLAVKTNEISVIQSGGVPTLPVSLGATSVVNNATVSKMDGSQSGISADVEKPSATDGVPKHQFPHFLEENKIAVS
Technique: universal PBM
Form: double-stranded DNA, one strand shown
Sample: in vitro
Tested at: 600 nM
Notes: 8-mer, flanks averaged, mean of replicates
Direction: higher = stronger binding
For `CTGGCATC`, the E-score was -0.207.
`GATGAGGC` gave an E-score of -0.116.
`AACTAGTC` has an E-score of 0.0663.
The E-score of `TGTGGGAA` is reported as -0.0171.
`AACGTGCT` gave an E-score of -0.103.
`TACCAATA` has an E-score of 0.261.

Block 2
Target: CCNB2, cyclin fold, Cln2 fusion (human)
Technique: yeast growth competition, sequencing
Sample: yeast
Notes: strong parent motif
Baseline: not given
Direction: higher = stronger binding
Starting sequence: PKMYT1 docking peptide (human); SFEPRNLLSLFED
`SFEHRNLLSLFED [P4H]` — result for “normalised enrichment score”: -0.696.
`SFEPRNLLSSFED [L10S]`: “normalised enrichment score” 0.716.
Under “normalised enrichment score”, `MFEPRNLLSLFED [S1M]` is recorded as 1.81.
`SFEPPNLLSLFED [R5P]` — result for “normalised enrichment score”: -0.686.
For `SFEERNLLSLFED [P4E]`, “normalised enrichment score” read -0.587.
`SFEPRNLLWLFED [S9W]`: “normalised enrichment score” 0.825.
`SFEPRNLLSKFED [L10K]`: “normalised enrichment score” -0.312.
`STEPRNLLSLFED [F2T]`: “normalised enrichment score” 0.572.
Under “normalised enrichment score”, `SFEPRNLHSLFED [L8H]` is recorded as 0.0215.
For `SFEPRNFLSLFED [L7F]`, “normalised enrichment score” read -0.586.

Block 3
Target: RNA binding protein fox-1 homolog 2, RRM domain, GST-SBP tag (RBFOX2, Homo sapiens, UniProt O43251-10, residues 100-194)
Technique: RNA Bind-n-Seq
Form: RNA
Sample: in vitro
Tested at: 365 nM
Notes: natural RNA segment, single round, ends assumed
Baseline: no-protein control
Direction: higher = stronger binding
Construct (chain): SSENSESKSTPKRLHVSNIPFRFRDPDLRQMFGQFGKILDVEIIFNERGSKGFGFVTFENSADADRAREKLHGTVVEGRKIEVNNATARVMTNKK
`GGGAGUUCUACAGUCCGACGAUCAUCUCAAUGGGCCUAUACAGGAAAGGCUGUUAAUUUAAGUCUGUCGUUACUUUCUGGCGAAUUUAACAUAAGCCUUGGGCACCUGUCACAAUUUUCUAAAGAUGGUUUGGUGGAAUUCUCGGGUGCCAA`: “RBNS enrichment (R)” 0.543.
For `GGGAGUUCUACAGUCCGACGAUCGCAGAUAAACUGAUGUUUGAAAUUCGCUGAAAUACUUAAUGUGGAAUAGGAUAAUAUACUUCCAAUGCCCUCAAGGCUGUGACCUUACAGCCAUUUUACAUAGCACAUCAUGGAAUUCUCGGGUGCCAA`, “RBNS enrichment (R)” read 0.791.
`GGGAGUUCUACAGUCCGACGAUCAAUAUCCUCAACAGACAAAAGAAGACAGGAAGCUUUUGGAGGCACGGGAAAAUUUUUGCUUGCUUGUGAAGCACCUGUCAGAGGACCCGCCUUCGAGCCUGCAGGAACUAUGGAAUUCUCGGGUGCCAA`: “RBNS enrichment (R)” 1.15.
`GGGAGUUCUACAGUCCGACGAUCUGUUUUUUCUGGUCCCUGAGUCUGGCAUUUCUGUCUGUGACUUAGCUAUGUUUCUGAUGCCAAUCACACUAGCACCAUUACAUGCUGGGCAGGUGCUGGGCAGCACAGACUGGAAUUCUCGGGUGCCAA`: “RBNS enrichment (R)” 0.425.
Under “RBNS enrichment (R)”, `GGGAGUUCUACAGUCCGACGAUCGGGUGAAAUGAUUGACUUGUGACCUGCCAGGUUGCCCGAUGCCCUGUUGGGUCACCGGCUGGACCUGCUGCAGCCUGCAGAGCCACAGUCAGCCUGCCCACAUGCCACCGUGGAAUUCUCGGGUGCCAA` is recorded as 0.191.
For `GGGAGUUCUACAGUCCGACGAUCAGUACUUUAUAUUCUUUAUCAUAUCACUUUUUGUAAGUGUUGAAUAUAUUCCUGUUUAUUUUUCUAUGUUCUGUUUUGUAGCCUUAAGAAGUGUUUCAAACAUAUCUGAAUGGAAUUCUCGGGUGCCAA`, “RBNS enrichment (R)” read 0.64.
`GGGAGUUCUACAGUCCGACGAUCGAAAACCAGACUCUCCUCCCAAACUAGCCUCAGGAGCUUGGCGAACCCGCUCGCUCCUAAAGAGAAAGACCCAGGACCCUCCCCCAUCACCCCCAAGAGAGGUUCGCCAUUGGAAUUCUCGGGUGCCAA`: “RBNS enrichment (R)” 0.438.
`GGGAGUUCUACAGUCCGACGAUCGGAACUAAGAGCUUAGAAGGAGGCAGACCGGGAAGUAGGCCAUGGCCAGGGGCAGGAAAUGAAGCCCUGCUGUCGGUCACCUCUACUAAAUCAAGCAAAUGGUCCUCUAUUGGAAUUCUCGGGUGCCAA`: “RBNS enrichment (R)” 0.638.
`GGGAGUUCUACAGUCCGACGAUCUGCACUUAGCGGGGUACCCGGCUCCCCCAGCCCCCACACCCGUCCUGGGUCUCAGGGUGGUUCCAGCUUCUCCUUGGGCAGCCAGAAGUUGGAGUCCCAUCCCCCAAGGCUGGAAUUCUCGGGUGCCAA`: “RBNS enrichment (R)” 0.621.

Further values, each from its own experiment
The fold induction of `PhoQ, residues 284 288 289 292 302 303 SSCCRF` is reported as 13.6 (PhoP, residues 12 14 15 18 19 SQCLL (Escherichia coli, UniProt P23836); Sort-seq, item: YFP reporter; E. coli; PhoQ-PhoP variant library, together with: 10 µM Mg2+; baseline: high Mg2+ state, higher = stronger signaling).
